Earlier results as cited in several papers.
pIC50: −log10 of the molar value. Values after ≈ are worked out from the molar mass of the structure shown.

| SMILES | target or system | test | test system | conditions | how to read | endpoint | value |
| --- | --- | --- | --- | --- | --- | --- | --- |
| CC1(C)N=C(N)N=C(N)N1c1ccc(Cl)c(Cl)c1 | respiratory syncytial virus |  |  |  | reference: cytotoxic over antiviral concentration | selectivity index | > 10000 |
| CCCCCc1cc(O)c2c(c1)OC(C)(C)C1CCC(CO)=CC21 (stereo not drawn) |  |  | human | dose not given, after cannabis smoking | reference: THC | plasma concentration | ~10% |
| CC[C@H](C)[C@H](NC(=O)[C@H](CC(=O)O)NC(=O)[C@@H](NC(=O)[C@@H]1CCCN1C(=O)[C@@H](N)CCCNC(=N)N)[C@@H](C)O)C(=O)N[C@@H](CCCCN)C(=O)N[C@H]1CSSC[C@@H]2NC(=O)[C@H](CCCNC(=N)N)NC(=O)CNC(=O)[C@H](CC(N)=O)NC(=O)[C@H]([C@@H](C)O)NC(=O)[C@H](CCCCN)NC(=O)CNC(=O)[C@H](Cc3ccccc3)NC(=O)[C@H](CCCNC(=N)N)NC(=O)[C@H](CO)NC(=O)[C@H](CCCCN)NC(=O)[C@@H]3CSSC[C@@H](C(=O)N[C@@H](Cc4ccccc4)C(=O)O)NC(=O)[C@H](CC(=O)O)NC(=O)[C@H](CSSC[C@H](NC(=O)[C@H](CCC(N)=O)NC(=O)[C@H](Cc4ccc(O)cc4)NC(=O)[C@H](CO)NC(=O)[C@H](CCC(=O)O)NC(=O)[C@H](CO)NC1=O)C(=O)N[C@@H](Cc1ccccc1)C(=O)N1CCC[C@H]1C(=O)N[C@@H](C(C)C)C(=O)N3)NC(=O)[C@H](Cc1ccccc1)NC(=O)CNC(=O)[C@H](CC(N)=O)NC(=O)[C@H](C(C)C)NC2=O | hERG channel | ion current, blocker | HEK293 |  |  | pIC50 | 8.48 |
| CCCCCc1cc(O)c2c(c1)OC(C)(C)C1CCC(C)=CC21 (single isomer, unassigned; (-)) |  |  | human, plasma | oral, 40 mg |  | Cmax | 65 nM |
| CCCCCC1=C(NCC)C(=O)C(C/C=C(\C)CCC=C(C)C)=C(O)C1=O | hERG channel |  |  | concentration not given |  | inhibition | no inhibition |
| CCCC(C(=O)c1ccccc1)N1CCCC1 (stereo not drawn) |  |  | human, blood | intranasal |  | detection time in blood | 6 h |
| CCCCCc1cc(O)c2c(c1)OC(C)(C)C1CCC(C)=CC21 (stereo not drawn) |  |  |  |  |  | aqueous solubility | 1 to 2 µg/mL (≈ 3.18 to 6.36 µM) |
| O=C(OCC[18F])C1C2CCC(CC1c1ccc(/C=C\I)cc1)N2 (stereo not drawn) | SERT | HRRT PET | awake rhesus monkey, caudate |  |  | time to peak uptake | 85 min |
| CN[C@H](CC(C)C)C(=O)N[C@H]1C(=O)N[C@@H](CC(N)=O)C(=O)N[C@H]2C(=O)N[C@H]3C(=O)N[C@H](C(=O)N[C@H](C(=O)O)c4cc(O)cc(O)c4-c4cc3ccc4O)[C@H](O)c3ccc(c(Cl)c3)Oc3cc2cc(c3O[C@@H]2O[C@H](CO)[C@@H](O)[C@H](O)[C@H]2O[C@H]2C[C@](C)(NCc3ccc(-c4ccc(Cl)cc4)cc3)[C@H](O)[C@H](C)O2)Oc2ccc(cc2Cl)[C@H]1O |  |  | mouse, plasma | intravenous, 10 mg/kg |  | Cmax | 65 µg/mL |
| CCCCCc1cc(O)c2c(c1)OC(C)(C)C1CCC(C(=O)O)=CC21 (stereo not drawn) |  |  | human, plasma | inhalation |  | Tmax | ~1.33 h |
| CCCCCc1cc(O)c2c(c1)OC(C)(C)C1CCC(C)=CC21 (single isomer, unassigned; (-)) |  |  | human, plasma | inhalation, 10 mg |  | plasma concentration | 350 nM |
| CC[C@H](C)C(=O)N1CCC(NC(=O)Nc2ccc(OC(F)(F)F)c(F)c2)CC1 | OATP1B3 | inhibitor |  |  |  | pIC50 | 5.24 |
